Results from different studies.
Each numbered part is a random draw from the data of one study; scales do not carry over between parts. “And” joins repeats or separate records; there may be more than shown.

Series 1 — cell line: HEK-293T/ACE2; tested at: concentration not given; time: 16 (unit not given); reference: vehicle; endpoint: viability
CC(=O)Nc1ccc(O)cc1: 91.1%
CC1(C)O[C@@H]2C[C@H]3[C@@H]4C[C@H](F)C5=CC(=O)C=C[C@]5(C)[C@H]4[C@@H](O)C[C@]3(C)[C@]2(C(=O)CO)O1: 103%
CCCNC(=O)NS(=O)(=O)c1ccc(Cl)cc1: 100%
C[C@H]1C[C@H]2[C@@H]3CCC4=CC(=O)C=C[C@]4(C)[C@@]3(F)[C@@H](O)C[C@]2(C)[C@@]1(O)C(=O)CO: 99.6%
CC1(C)O[C@@H]2C[C@H]3[C@@H]4CCC5=CC(=O)CC[C@]5(C)[C@@]4(F)[C@@H](O)C[C@]3(C)[C@]2(C(=O)CCl)O1: 90.5%
CCOC(=O)O[C@]1(C(=O)OCCl)CC[C@H]2[C@@H]3CCC4=CC(=O)C=C[C@]4(C)[C@H]3[C@@H](O)C[C@@]21C: 104%
CC1(C)S[C@@H]2[C@H](NC(=O)[C@H](NC(=O)N3CCNC3=O)c3ccccc3)C(=O)N2[C@H]1C(=O)O: 98.8%
COCCc1ccc(OCC(O)CNC(C)C)cc1 (centres unmarked): 104%
CC#CCn1c(N2CCC[C@@H](N)C2)nc2c1c(=O)n(Cc1nc(C)c3ccccc3n1)c(=O)n2C: 104%
COc1ccnc(C[S+]([O-])c2nc3ccc(OC(F)F)cc3[nH]2)c1OC (centres unmarked): 102%
C[C@H](N)[C@H](O)c1cccc(O)c1: 101%
CCCc1nc2c(C)cc(-c3nc4ccccc4n3C)cc2n1Cc1ccc(-c2ccccc2C(=O)O)cc1: 98.9%
COc1ccc2c(c1)c(CC(=O)O)c(C)n2C(=O)c1ccc(Cl)cc1: 100%
C#C[C@]1(O)CC[C@H]2[C@@H]3CCC4=CC(=O)CC[C@@H]4[C@H]3CC[C@@]21C: 99.5%

Series 2 — observed: enzyme activity; action: inhibitor; tested at: 77 µM; reference: untreated; endpoint: remaining activity
Target: DNA polymerase theta, ATPase domain (POLQ, Homo sapiens, UniProt O75417)
Sequence of UniProt O75417 (whole entry, unmodified, looked up): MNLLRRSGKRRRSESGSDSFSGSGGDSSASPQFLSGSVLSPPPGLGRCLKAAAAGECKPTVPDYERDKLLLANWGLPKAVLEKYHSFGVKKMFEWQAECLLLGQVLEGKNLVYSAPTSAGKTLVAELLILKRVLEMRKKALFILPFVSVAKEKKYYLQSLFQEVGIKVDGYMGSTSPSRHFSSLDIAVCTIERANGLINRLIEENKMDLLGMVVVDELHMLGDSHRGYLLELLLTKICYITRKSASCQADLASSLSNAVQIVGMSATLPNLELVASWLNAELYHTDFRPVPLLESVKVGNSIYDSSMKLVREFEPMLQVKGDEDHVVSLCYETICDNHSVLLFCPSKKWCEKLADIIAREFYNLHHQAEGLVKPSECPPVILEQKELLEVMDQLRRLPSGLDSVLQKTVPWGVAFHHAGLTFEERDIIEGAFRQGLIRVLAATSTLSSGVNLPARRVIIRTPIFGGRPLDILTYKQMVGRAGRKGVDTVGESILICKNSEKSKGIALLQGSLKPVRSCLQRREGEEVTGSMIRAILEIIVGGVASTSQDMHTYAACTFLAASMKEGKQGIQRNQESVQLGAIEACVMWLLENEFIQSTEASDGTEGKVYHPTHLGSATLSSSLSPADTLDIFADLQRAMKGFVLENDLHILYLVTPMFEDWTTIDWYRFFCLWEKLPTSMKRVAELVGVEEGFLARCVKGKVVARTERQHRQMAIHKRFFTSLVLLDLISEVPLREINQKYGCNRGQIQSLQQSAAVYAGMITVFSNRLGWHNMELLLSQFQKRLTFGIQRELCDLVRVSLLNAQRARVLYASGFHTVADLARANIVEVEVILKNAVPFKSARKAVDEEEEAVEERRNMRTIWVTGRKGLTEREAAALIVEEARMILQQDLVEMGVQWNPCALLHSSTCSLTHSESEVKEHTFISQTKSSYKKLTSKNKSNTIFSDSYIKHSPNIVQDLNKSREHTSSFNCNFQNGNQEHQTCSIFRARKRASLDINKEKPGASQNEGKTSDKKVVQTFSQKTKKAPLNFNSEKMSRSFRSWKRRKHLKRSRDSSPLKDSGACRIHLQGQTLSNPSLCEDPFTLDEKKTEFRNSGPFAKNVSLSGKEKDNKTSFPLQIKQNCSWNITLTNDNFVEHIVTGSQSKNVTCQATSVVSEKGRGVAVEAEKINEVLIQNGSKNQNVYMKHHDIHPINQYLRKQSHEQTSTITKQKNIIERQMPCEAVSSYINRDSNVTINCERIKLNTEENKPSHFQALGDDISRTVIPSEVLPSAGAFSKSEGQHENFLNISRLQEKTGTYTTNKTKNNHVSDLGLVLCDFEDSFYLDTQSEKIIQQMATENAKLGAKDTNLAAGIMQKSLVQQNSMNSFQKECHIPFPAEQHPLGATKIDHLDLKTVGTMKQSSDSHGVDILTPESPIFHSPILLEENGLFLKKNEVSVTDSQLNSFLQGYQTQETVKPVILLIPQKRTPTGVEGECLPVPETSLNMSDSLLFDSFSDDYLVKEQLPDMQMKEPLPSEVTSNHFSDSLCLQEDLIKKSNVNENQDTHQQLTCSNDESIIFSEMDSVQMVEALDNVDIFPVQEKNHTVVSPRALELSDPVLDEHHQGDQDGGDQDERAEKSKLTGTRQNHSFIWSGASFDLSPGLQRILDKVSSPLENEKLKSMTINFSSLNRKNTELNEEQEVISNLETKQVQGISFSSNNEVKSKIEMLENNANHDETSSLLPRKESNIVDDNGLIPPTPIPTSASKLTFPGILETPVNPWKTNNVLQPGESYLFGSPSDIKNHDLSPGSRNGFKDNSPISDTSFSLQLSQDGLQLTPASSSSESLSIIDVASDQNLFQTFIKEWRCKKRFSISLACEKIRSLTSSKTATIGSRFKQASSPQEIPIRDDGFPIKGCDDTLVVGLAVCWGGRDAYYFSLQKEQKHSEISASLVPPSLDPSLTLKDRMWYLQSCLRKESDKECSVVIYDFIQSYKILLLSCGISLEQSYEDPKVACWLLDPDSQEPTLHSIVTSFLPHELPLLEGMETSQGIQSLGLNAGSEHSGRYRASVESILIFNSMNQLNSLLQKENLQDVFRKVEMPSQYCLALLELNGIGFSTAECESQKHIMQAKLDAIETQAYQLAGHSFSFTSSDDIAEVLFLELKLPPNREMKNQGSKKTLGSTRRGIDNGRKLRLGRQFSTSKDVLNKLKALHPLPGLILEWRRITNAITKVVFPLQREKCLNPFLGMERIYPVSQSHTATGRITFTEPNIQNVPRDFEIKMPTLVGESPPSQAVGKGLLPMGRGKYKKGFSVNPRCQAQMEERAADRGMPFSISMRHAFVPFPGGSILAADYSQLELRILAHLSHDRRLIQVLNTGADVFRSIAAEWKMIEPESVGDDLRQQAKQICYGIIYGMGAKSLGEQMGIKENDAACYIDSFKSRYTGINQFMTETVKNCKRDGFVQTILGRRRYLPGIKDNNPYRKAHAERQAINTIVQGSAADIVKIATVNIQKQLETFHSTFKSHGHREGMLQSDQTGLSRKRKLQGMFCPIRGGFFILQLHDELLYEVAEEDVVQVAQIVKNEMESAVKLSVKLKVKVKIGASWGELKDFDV
O=P1(NCCCl)OCCCN1CCCl (centres unmarked): 98.2% and 101%
O=C(N[C@H]1CN2CCC1CC2)c1cc2ccoc2cn1: 101%
C[C@H](N)[C@H](O)c1ccccc1: 94.5%
CC(NC(C)(C)C)C(=O)c1cccc(Cl)c1 (centres unmarked): 104%
CN(C)[C@@H]1C(=O)C(C(N)=O)=C(O)[C@@]2(O)C(=O)C3=C(O)c4c(O)cccc4[C@@](C)(O)[C@H]3C[C@@H]12: 95.5%

Series 3 — observed: ligand displacement; tested at: 10 µM; endpoint: inhibition
Target: 5-hydroxytryptamine receptor 2C (HTR2C, Homo sapiens, UniProt P28335)
Sequence of UniProt P28335 (whole entry, looked up): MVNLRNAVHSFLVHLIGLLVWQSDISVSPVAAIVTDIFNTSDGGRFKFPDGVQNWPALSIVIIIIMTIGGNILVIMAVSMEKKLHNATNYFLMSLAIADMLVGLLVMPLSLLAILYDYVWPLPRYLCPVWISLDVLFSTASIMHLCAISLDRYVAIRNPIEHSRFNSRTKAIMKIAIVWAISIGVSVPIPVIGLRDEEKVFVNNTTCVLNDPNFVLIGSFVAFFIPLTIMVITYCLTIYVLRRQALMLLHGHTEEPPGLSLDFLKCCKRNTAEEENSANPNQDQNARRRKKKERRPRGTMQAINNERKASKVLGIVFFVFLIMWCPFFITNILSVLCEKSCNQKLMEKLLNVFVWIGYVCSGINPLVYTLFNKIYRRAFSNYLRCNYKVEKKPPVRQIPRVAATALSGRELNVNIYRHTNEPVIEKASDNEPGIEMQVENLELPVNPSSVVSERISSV
COc1cc(N[C@@H]2CCCC[C@]2(O)C(F)(F)F)ccc1F: -0.76%
CN(c1ccnc(CNc2nc(Nc3ccc4c(c3)CC(=O)N4)ncc2C(F)(F)F)n1)S(C)(=O)=O: 8.11%
C[C@H](c1ccc(F)cc1)N(Cc1ccc(Cl)c(C(=O)O)c1)C(=O)c1cnc2ccccc2c1: -7.78%
O=C(NNS(=O)(=O)c1ccccc1)c1cc(-c2ccnnc2)ccc1F: 7.81%
C[C@@H](c1cccc(C#N)c1)n1cc(Cl)cc(C(N)=O)c1=N: 16.8%
C[C@H](c1ccc(F)cc1)N(Cc1cccc(C(=O)O)c1)C(=O)c1cnc2ccccc2c1: 6.54%
CN1CCN(c2cnc3c(C4CCN(C(=O)c5ccc(OC(F)(F)F)cc5N)CC4)ncnc3c2)CC1: -4.77%
COc1cc(-c2cn(C3CCc4c(F)cccc4N(CC(F)(F)F)C3=O)nn2)ccc1-n1cnc(C)c1 (centres unmarked): 27.6%
NC(=O)c1ccc2nc(-c3ccc(C4(N)CCC4)cc3)c(-c3ccccc3)n2n1: 25.7%
CCC(=NO)C(C)=Cc1ccc(F)c(C)c1: 27%
Cc1noc([C@H]2C[C@@H](c3ccc(C(F)(F)F)cc3)CN(C(=O)N3CCS(=O)(=O)C3)C2)n1: 37.1%
O=C1c2ccc(Nc3ccc(F)cc3F)cc2CCc2ccc(OC[C@H](O)CO)cc21: 24%
C[C@@H]1CN(c2cc(-c3n[nH]c4ccc(OC5(C)CC5)cc34)ncn2)C[C@H](C)O1: 7.65%
CN1C(=O)[C@@H](N2CCc3c(nn(Cc4ccccc4)c3Br)C2=O)COc2ccccc21: 2.4%
N#CC1(c2ccccn2)CCN(Cc2cc(C(=O)O)c(=O)n3ccccc23)CC1: 10.5%
CN1CCN(c2ccnc(NCCc3ccccc3)n2)CC1: 94.8%
CS(=O)(=O)c1cc(C2(NC(=O)c3cncc4c3cnn4-c3ccc(F)cc3)CC2)ccn1: -14.7%
C[C@@H](NC(=O)Nc1cc2[nH]ncc2c(CO)n1)c1ccccc1: 26.3%
Cn1nc(C(F)(F)F)cc1-c1cnc(N2CCc3cc(S(=O)(=O)Nc4c(F)cc(Cl)cc4F)cc(N4CCCC4=O)c32)nc1: 31%
N#CC1(c2ccccn2)CCN(Cc2cc(C(=O)N3CCCC3)c(=O)n3ccccc23)CC1: -2.49%
CC(C)(C)OC(=O)N1CCCC1CNC1CCC(c2cc(F)ccc2F)(S(=O)(=O)c2ccc(Cl)cc2)CC1 (centres unmarked): 80.9%
CC[C@H](CC(=O)O)n1c(=O)c2ncccc2n(Cc2cn(C)c3cc(C)cc(C)c23)c1=O: 1.02%
CNC(=N)NCCC[C@H](NC(=O)[C@H](CC(C)C)NC(=O)NNC(=O)[C@H](Cc1ccccc1)NC(=O)[C@H](CO)NC(=O)[C@H](CC(N)=O)NC(=O)[C@@H](Cc1ccncc1)NC(=O)[C@H](N)Cc1ccc(O)cc1)C(=O)N[C@@H](Cc1ccccc1)C(N)=O: 12.8%
Cc1cc2c(-c3ccco3)cnc(N[C@@H]3CCN(C)C[C@H]3C(=O)NC3CCCCC3)c2[nH]c1=O: 14%
Nc1nc(NCc2ccccc2)nc(-c2cccc(CO)c2)n1: 3.72%

Series 4 — cell line: mouse MPNST tumor cells; technique: high-content immunofluorescence imaging; measured: nuclear SOX9; tested at: 10 µM; time: 12 h; notes: mean of 2 replicates; reference: DMSO control; direction: higher = more nuclear SOX9; endpoint: nuclear SOX9 intensity
COc1cc2c(c(OC)c1OC)-c1ccc(OC)c(=O)cc1[C@@H](NC(C)=O)CC2: 215 % of DMSO
O=[N+]([O-])O[C@H]1CO[C@H]2[C@@H]1OC[C@H]2O[N+](=O)[O-]: 97.5 % of DMSO and 97.3 % of DMSO
CN[C@@H]1[C@@H](O)[C@@H](O[C@@H]2[C@@H](O)[C@H](O[C@H]3O[C@H](CN)CC[C@H]3N)[C@@H](N)C[C@H]2N)OC[C@]1(C)O.CN[C@@H]1[C@@H](O)[C@@H](O[C@@H]2[C@@H](O)[C@H](O[C@H]3O[C@H]([C@@H](C)N)CC[C@H]3N)[C@@H](N)C[C@H]2N)OC[C@]1(C)O.CN[C@@H]1[C@@H](O)[C@@H](O[C@@H]2[C@@H](O)[C@H](O[C@H]3O[C@H]([C@@H](C)NC)CC[C@H]3N)[C@@H](N)C[C@H]2N)OC[C@]1(C)O: 104 % of DMSO
C=CC[C@]1(O)CC[C@H]2[C@@H]3CCC4=CC(=O)CCC4=C3C=C[C@@]21C: 92.7 % of DMSO
Nc1ncnc2c1ccn2[C@@H]1O[C@H]([C@H](O)c2ccccc2)[C@@H](O)[C@H]1O: 105 % of DMSO
CCC(=O)O[C@@](Cc1ccccc1)(c1ccccc1)[C@@H](C)CN(C)C: 105 % of DMSO

Some of these lines once more (series 4):
Nc1ncnc2c1ccn2[C@@H]1O[C@H]([C@H](O)c2ccccc2)[C@@H](O)[C@H]1O: 105 % of DMSO
CCC(=O)O[C@@](Cc1ccccc1)(c1ccccc1)[C@@H](C)CN(C)C: 105 % of DMSO
CN[C@@H]1[C@@H](O)[C@@H](O[C@@H]2[C@@H](O)[C@H](O[C@H]3O[C@H](CN)CC[C@H]3N)[C@@H](N)C[C@H]2N)OC[C@]1(C)O.CN[C@@H]1[C@@H](O)[C@@H](O[C@@H]2[C@@H](O)[C@H](O[C@H]3O[C@H]([C@@H](C)N)CC[C@H]3N)[C@@H](N)C[C@H]2N)OC[C@]1(C)O.CN[C@@H]1[C@@H](O)[C@@H](O[C@@H]2[C@@H](O)[C@H](O[C@H]3O[C@H]([C@@H](C)NC)CC[C@H]3N)[C@@H](N)C[C@H]2N)OC[C@]1(C)O: 104 % of DMSO
COc1cc2c(c(OC)c1OC)-c1ccc(OC)c(=O)cc1[C@@H](NC(C)=O)CC2: 215 % of DMSO
O=[N+]([O-])O[C@H]1CO[C@H]2[C@@H]1OC[C@H]2O[N+](=O)[O-]: 97.5 % of DMSO and 97.3 % of DMSO
C=CC[C@]1(O)CC[C@H]2[C@@H]3CCC4=CC(=O)CCC4=C3C=C[C@@]21C: 92.7 % of DMSO
